Measured values from different studies.
Each line is one published result; not all experiments were run side by side. “And” joins repeats or separate records; there may be more than shown. Numbers after ± are the reported error.
Target: D(3) dopamine receptor (DRD3, Homo sapiens, UniProt P35462)
Chain of UniProt P35462 (whole entry, looked up): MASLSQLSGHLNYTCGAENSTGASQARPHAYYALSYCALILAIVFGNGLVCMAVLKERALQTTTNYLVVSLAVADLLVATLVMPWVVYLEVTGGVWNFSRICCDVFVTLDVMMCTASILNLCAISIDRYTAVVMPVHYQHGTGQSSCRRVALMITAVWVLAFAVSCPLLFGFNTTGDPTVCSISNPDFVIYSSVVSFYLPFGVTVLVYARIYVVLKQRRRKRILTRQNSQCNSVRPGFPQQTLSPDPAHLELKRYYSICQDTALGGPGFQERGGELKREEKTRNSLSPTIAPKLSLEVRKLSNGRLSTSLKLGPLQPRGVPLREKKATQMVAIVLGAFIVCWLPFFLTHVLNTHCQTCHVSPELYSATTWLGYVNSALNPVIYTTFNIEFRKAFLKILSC

COc1ccc(-c2csc3ncnc(NCCCN4CCN(c5ccccc5)CC4)c23)cc1 — Ki (cell-free assay): 3.07 µM
Cc1ccc(C(=O)NC[C@@H](C)N2CCCC2)cc1I — Ki (ligand displacement, radioligand; cell membranes): > 10 µM
Cc1cc2c(c(O)c1O)C(=O)c1c(O)cc(O)cc1C2=O — EC50 (cAMP, agonist, TR-FRET): 56.8 µM
Cn1c(=O)c(SCC(=O)NCCN2CCC(Cc3ccccc3)CC2)nc2ccccc21 — Ki (cell-free assay): 0.641 µM
NC(CO)CCc1ccccc1Cl (racemic) — EC50 (GTPγS binding, agonist, radiometric; cell membranes): 3.5 µM and 3.46 µM
CC1(C)C2=C3C=C4C5=[N+](CCC4OC3CCN2c2ccc(S(=O)(=O)[O-])cc21)c1ccc(C(=O)NCCCCOc2ccc(C(=O)CCCN3CCC(O)(c4ccc(Cl)cc4)CC3)cc2)cc1C5(C)C (stereo not shown) — Ki (ligand displacement, radioligand; cell membranes): 0.068 µM
CN(C)[C@@H](CNC(=O)NC[C@H]1Cc2ccccc21)Cc1ccccc1 — Ki (ligand displacement, radioligand; cell membranes): 5.4 µM
Cc1cccc(NC(=O)CN2CCC(c3ccccc3)CC2)c1 — EC50 (cell growth or viability, thymidine uptake): > 10 µM
CCc1c(Cl)cccc1N1CCN(C[C@@H](F)CCNC(=O)c2cc3ccccc3[nH]2)CC1 — EC50 (mitogenesis, agonist, [3H]thymidine incorporation; CHO cells expressing D3 receptor): 0.0076 ± 0.0039 µM
Clc1ccc(-n2cc(CNC[C@@H]3CCCOC3)nn2)c(Cl)c1 — Ki (ligand displacement, radioligand; cell membranes): > 10 µM

Excerpt of the above:
Cc1cc2c(c(O)c1O)C(=O)c1c(O)cc(O)cc1C2=O — EC50 (cAMP, agonist, TR-FRET): 56.8 µM
